# Measured values pooled from the literature.
# Each numbered part is a random draw from the data of one study; scales do not carry over between parts.

# Study 1
# Target: Interferon regulatory factor 7, full length, phosphomimetic (IRF7, Homo sapiens, UniProt Q92985, residues 1-503, S101K/S471D/S472D/S475D/S476D/S477D/S483D/S484D/S487D)
# UniProt Q92985, sequence (whole entry, unmodified, looked up): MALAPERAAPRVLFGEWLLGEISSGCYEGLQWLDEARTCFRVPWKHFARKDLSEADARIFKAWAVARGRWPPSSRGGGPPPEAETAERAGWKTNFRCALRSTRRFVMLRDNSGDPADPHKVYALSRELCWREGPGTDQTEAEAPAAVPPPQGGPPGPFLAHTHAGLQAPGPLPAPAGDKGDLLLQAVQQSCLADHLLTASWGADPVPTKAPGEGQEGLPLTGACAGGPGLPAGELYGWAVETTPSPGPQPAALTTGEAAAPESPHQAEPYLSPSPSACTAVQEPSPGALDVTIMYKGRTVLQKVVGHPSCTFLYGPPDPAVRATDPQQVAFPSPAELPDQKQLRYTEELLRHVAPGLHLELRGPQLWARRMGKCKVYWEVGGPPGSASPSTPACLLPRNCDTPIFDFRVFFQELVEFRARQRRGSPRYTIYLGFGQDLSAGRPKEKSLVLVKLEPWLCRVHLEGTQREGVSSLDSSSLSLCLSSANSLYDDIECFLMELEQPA
# Technique: protein-binding microarray
# Form: double-stranded DNA, one strand shown
# Matrix: in vitro
# Concentration: 250 nM
# Notes: 60-bp whole probe
# Added: salmon DNA 0.4 mg/ml
# Relative to: random background probes
# Reading: higher = stronger binding
# Constant ends, left off below: GCCTAGCAC … GTCTTGATTCGCTTGACGCTGCTG
Sequence,log fluorescence [z-score]
GACGGTTTCGGGTTTGGGGACGTGCTA,10.2
GACGGGCTGCTTTTCCTGACGTGCTAG,-0.572
TCACTCTTTGGCAAAGCCAGGTGCTAG,0.614
TCAATTTTCTCTTATTCACTGTGCTAG,1.01
CACGATCTCAGTTTCGAGACGTGCTAG,4.13

# Study 2
# Target: Histone acetyltransferase KAT6A, winged helix 1, GST fusion (KAT6A, Homo sapiens, UniProt Q92794, residues 1-85)
# Technique: protein binding microarray
# Form: double-stranded DNA, one strand shown
# Matrix: in vitro
# Concentration: not given
# Notes: 8-mer, flanks averaged, mean of 2 arrays, mostly near background
# Relative to: not given
# Reading: higher = stronger binding
# Residues (chain): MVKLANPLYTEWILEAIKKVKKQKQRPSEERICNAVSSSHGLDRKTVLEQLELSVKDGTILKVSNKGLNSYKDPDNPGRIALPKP
Sequence,E-score
AGAATCCG,-0.0297
CATACAGA,-0.209
TAAGGACA,-0.105
GGCCTCTA,-0.0897

# Study 3
# Target: RNA binding protein fox-1 homolog 2, RRM domain, GST-SBP tag (RBFOX2, Homo sapiens, UniProt O43251-10, residues 100-194)
# Technique: RNA Bind-n-Seq
# Form: RNA
# Matrix: in vitro
# Concentration: 365 nM
# Notes: natural RNA segment, single round, ends assumed
# Relative to: no-protein control
# Reading: higher = stronger binding
Sequence,RBNS enrichment (R)
GGGAGUUCUACAGUCCGACGAUCUGUAUUGAUGUCAACUCUGGUGCCUUAGAAGUUAGUAGUUUGGGAACCUAUCUGUAAAAUCAGAUGUUUUUUCUUUGUAGAGAAGGAUUUCUGGUGCUUUUGCUUACUAAUGGAAUUCUCGGGUGCCAA,0.419
GGGAGUUCUACAGUCCGACGAUCAAAUUAGGACAUUUAGUAGUGAGGCACUGGUACCUUCUCCCUGCUCCUGUUAUAGAGGAGGCUACGUAGACCAAAAUGAGAAAAGGAAUGUGGCCACAGAAUGUAACCGUUGGAAUUCUCGGGUGCCAA,1.43
GGGAGUUCUACAGUCCGACGAUCAUUUGUCAUCGGUCAUUAGCCUCCCUCUGUGCUCCCUGGCACUCUUAAUAUAGAUUGAACCAGAAAGGUGACCCCUAGCUGUUGACUUAUUGUCACCCUAAAAAAAAAAAUGGAAUUCUCGGGUGCCAA,0.374
GGGAGUUCUACAGUCCGACGAUCUGGCCGCGGGACUGAUGGGUGUCCUGGGUUCUUUAGCUCACCAGCACUUUGCGCUCAAUGGACUUUGUAAAUUCUCAUCAGCUGUUGUAGAAGUUCCUCUGCCUGGAGCUUGGAAUUCUCGGGUGCCAA,3.52

# Further values, each from its own experiment
Molecule,target,assay,test system,conditions,scale,measurement,result
"PhoQ, residues 284 288 289 292 302 303 ASTSDA","PhoP, residues 12 14 15 18 19 FWNTL (Escherichia coli, UniProt P23836)","Sort-seq, refers to: YFP reporter",E. coli,"PhoQ-PhoP variant library, added: 10 µM Mg2+","relative to: high Mg2+ state, higher = stronger signaling",fold induction,3.51

# A few entries again (study 1):
Sequence,log fluorescence [z-score]
GACGGGCTGCTTTTCCTGACGTGCTAG,-0.572
